Measured values from different studies.
Compare with care: the assays were run in different laboratories. “And” joins repeats or separate records; there may be more than shown. ± marks the error that the study gave.

SMILES | test | system | conditions | how to read | measurement | value
CCOc1c([C@H](C)n2nc(C)c3c(N)ncnc32)cc(Cl)c(F)c1[C@@H]1CNC(=O)C1 | item: ΔQTcF > 60 ms | previously treated B-cell malignancy | oral, dose not given, all doses, overall population | – | share of patients | 1.4%
FC(F)(F)c1ccc(CNc2ccc(Cc3c[nH]c4ncc(Cl)cc34)cn2)cn1 | item: Rash | patients with advanced solid tumours, non-TGCT cohort | oral, 1000 mg/day, grade 3 or higher | – | treatment-related adverse events | 0%
CC(C)(C(=O)N1CCOc2c(C#N)cncc2C1)C(F)F | item: gastrointestinal disorders | human | oral, 40 mg, CSF pharmacokinetic cohort | – | subjects with adverse event | 33.3%
Cc1nc2cccc(OCC(C)(C)C(=O)NC(C)C)c2c(N)c1C(=O)O | – | male Swiss albino CD-1 mouse, bone marrow | oral, 500 mg/kg, 48 h | – | micronucleated NCE per 2000 PCE | 1
CCC(=O)N(CCC(c1ccc2c(c1)OCO2)c1ccccc1OC)Cc1ccccc1 (stereo not drawn) | – | female athymic nude mouse, blood | i.p., 60 mg/kg twice daily, 14 days, group mean | – | ALT | 53.2 U/L
Cc1ccc([C@@H]2O[C@H](CO)[C@@H](O)[C@H](O)[C@H]2O)cc1Cc1ccc(-c2ccc(F)cc2)s1 | – | Japanese type 2 diabetes patients | 200 mg, day 16, 24 h urine collection | baseline: baseline | urinary sodium excretion change | 14.7 mEq
Nc1ncnc2c1ncn2[C@H]1C[C@@H]2OP(=O)(O)OC[C@H]3O[C@@H](n4cnc5c(N)ncnc54)C[C@@H]3OP(=O)(O)OC[C@H]2O1 | – | non-tumor-bearing mice, blood | intravenous, 1 mg/kg, toxicity study | – | MCHC | 591.8 ± 5.91 g/L
CN(C)C(=N)N=C(N)N | item: any adverse event | healthy men | oral, dose not given, 8 days, treatment-emergent, crossover trial | – | subjects with adverse event | 40.9%
CCc1cc(C(=O)NC)c2nccc(N3CCc4c(cc(Cn5ccnc5)cc4-c4cn(C)nc4C(F)(F)F)C3=O)c2c1 | – | Sprague Dawley rat | oral, 100 mg/kg once daily, 7 days | baseline: vehicle | liver weight change | -1.1%
CCN1/C(=C/C(C)=O)Sc2ccc(F)cc21 | – | cynomolgus monkey | oral, 30 mg/kg, 2 h post-dose | baseline: pre-dose | diastolic blood pressure change | 99 ± 2.7%
COc1cc(Nc2ncc3c(n2)-c2ccc(Cl)cc2C(c2c(F)cccc2OC)=NC3)ccc1C(=O)O | item: acneiform rash, grade 2 | cancer patients, phase 1/2 | oral, dose not given, with: pembrolizumab | – | patients with adverse event | 4%
O=C(NCCN1CCCC1)c1cc(-c2ccc(CN3CCOCC3)cc2)nc2ccc(F)cc12 | – | human | oral, 1800 mg | – | dizziness duration | 11.3 h and 10.8 h
COc1ccc([C@@H](O)c2cc(-c3ncnc4cc(N5CCOCC5)ccc34)c(F)cc2Cl)nn1 | – | locally advanced rectal cancer patients | 150 mg, with: capecitabine and radiotherapy | – | blood lymphatic disorder TEAE | 33%
CNCc1ccc(-c2[nH]c3cc(F)cc4c3c2CCNC4=O)cc1 | item: headache | human patients | oral, 600 mg twice daily, grade 4 | – | patients with adverse event | 0%
Cc1cc(OCC(=O)OCCN)cc(C)c1Cc1ccc(O)c(C(C)C)c1.Cl | LC-MS/MS, item: liberated sobetirome | mouse, liver | intraperitoneal, 1.5 µmol/kg, 30 min | baseline: direct sobetirome injection | sobetirome level | decreased
O=C(Nc1nc2cccc(-c3ccc(CN4CCS(=O)(=O)CC4)cc3)n2n1)C1CC1 | item: animal bite | human rheumatoid arthritis patients | oral, 30 mg once daily, 4 weeks, regardless of relatedness | – | treatment-emergent adverse events | 0%
CC(C)n1c(Nc2cccnc2)nc2cnc(Nc3ccc(N4CCN(C)CC4)cc3)nc21 | – | healthy male humans | oral, dose not given, drug interaction study, all arms | – | subjects with grade 3 hypertriglyceridemia | 2.4%
NS(=O)(=O)c1ccc(-n2nc(C(F)(F)F)cc2-c2ccc(CO)cc2)cc1 | – | Sprague-Dawley rat | oral, 20 mg/kg of celecoxib, 4 h | – | blood-to-plasma ratio | 12.9
OC[C@H]1O[C@@H](c2ccc(Cl)c(Cc3ccc(O[C@H]4CCOC4)cc3)c2)[C@H](O)[C@@H](O)[C@@H]1O | – | Japanese type 1 diabetes patients, blood | 10 mg, day 28 | baseline: baseline | change in LDL cholesterol | 1.58 mg/dL
CN1CCN(c2cccc3c2CCN(C(=O)/C=C/c2c(-n4cnnn4)ccc(Cl)c2F)[C@@H]3C(=O)Nc2ccc(C(=O)O)cc2)C(=O)C1 | – | healthy human subjects | intravenous infusion, 25 mg/h, 2 h | – | subjects with headache | 0%

SMILES | test | system | conditions | how to read | measurement | value
N=C(N)NCCNC(=O)C1(Nc2ccccc2)CCN(Cc2ccccc2)CC1 | – | female Sprague-Dawley rats, plasma | intravenous, 2.5 mg/kg | – | mean residence time | 0.1 h
O=C(COc1ccc(Cl)cc1)NC12CC(c3nnc([C@H]4C[C@@H](OC(F)(F)F)C4)o3)(C1)C2 | item: Presyncope | healthy humans, both sexes | oral, 400 mg, single ascending dose | baseline: subjects | treatment-emergent adverse events | 16.7%
C[C@H](CCC(=O)O)[C@H]1CC[C@H]2[C@@H]3CC[C@@H]4C[C@H](OS(=O)(=O)O)CC[C@]4(C)[C@H]3CC[C@]12C | – | human, plasma | endogenous control diurnal | baseline: daily mean concentration | relative peak deviation | 12 ± 3.9%
C=CC(=O)N1CCC(c2ccc(C(N)=O)c(-c3ccc(Oc4ccccc4)cc3)n2)CC1 | CTCAE 4.03 | patients with relapsed/refractory MCL | oral, 100 mg twice daily | – | incidence of grade ≥3 TRAEs | 0%
Cl.[2H]C([2H])([2H])CC(=O)c1cnc(NC(=O)C2CC2)cc1Nc1cccc(-c2ncn(C([2H])([2H])[2H])n2)c1OC | median | human | oral, 40 mg twice daily, day 1, fed, liquid, multiple dose | – | Tmax | 2.08 h
C=CC[C@@H]1/C=C(\C)C[C@H](C)C[C@H](OC)[C@H]2O[C@@](O)(C(=O)C(=O)N3CCCC[C@H]3C(=O)O[C@H](/C(C)=C/[C@@H]3CC[C@@H](O)[C@H](OC)C3)[C@H](C)[C@@H](O)CC1=O)[C@H](C)C[C@@H]2OC | – | male Wistar Kyoto rat, 24-hour urine | intraperitoneal, 0.5 mg/kg/day, day 18 | – | urinary Ca2+ excretion | 139 ± 39 µmol/day
Cc1c(-c2ccc(N3CCc4cccc(C(=O)Nc5nc6ccccc6s5)c4C3)nc2C(=O)O)cnn1CC12CC3(C)CC(C)(C1)CC(OCCNCC[C@H](O)CO)(C3)C2 | – | anaesthetized male beagle dog | iv infusion, 0.1 mg/kg/min, 30 min | – | plasma concentration | 7 ng/mL
CO[C@H]1C[C@@H]2CC[C@@H](C)[C@@](O)(O2)C(=O)C(=O)N2CCCC[C@H]2C(=O)O[C@H]([C@H](C)C[C@@H]2CC[C@@H](OC(=O)NCCOCCOCCOCCOCCOCCOCCOCCOCCC(=O)N3CCc4cc(Cn5nc(-c6ccc7oc(N)nc7c6)c6c(N)ncnc65)ccc4C3)[C@H](OC)C2)C[C@@H](O)[C@H](C)/C=C(\C)[C@@H](O)[C@@H](OC)C(=O)[C@H](C)C[C@H](C)/C=C/C=C/C=C/1C | – | human patients, plasma | intravenous, 8 mg, cycle 1 day 15 | – | unbound Cmax | 18.9 nM
CNC(=O)c1ccc(-c2cnc3ncc(Cc4ccc5ncccc5c4)n3n2)cc1F | item: Fatigue, all grades | hepatocellular carcinoma patients | oral, 600 mg twice daily, expansion cohort, any causality | – | patients with adverse event | 27%
CCn1cc(C(=O)N2CCOCC2)c(=O)c2cc(NC3Cc4ccccc4C3)cnc21 | – | human, fasted | oral suspension, 2000 mg single dose, arithmetic mean | – | half-life | 16.7 h
Cc1ccc(Sc2ccccc2N2CCNCC2)c(C)c1 | – | healthy adult men | oral, 40 mg single dose, treatment-emergent adverse events | – | eczema incidence | 16.7%
Cc1cc(NC2CCN(C(=O)OC3CCN(C(=O)/C=C/CN(C)C)C3)CC2)n2ncc(C(C)C)c2n1 (stereo not drawn) | Phase I dose escalation CTCAE v4.0, item: pain in extremity | patients with advanced solid tumours | dose not given, TIW dosing grade 3 or higher | – | patients with adverse event | 0%
C[C@H](CCC(=O)O)[C@H]1CC[C@H]2[C@@H]3[C@H](O)C[C@@H]4C[C@H](O)CC[C@]4(C)[C@H]3CC[C@]12C | – | human, plasma | endogenous baseline diurnal | baseline: daily mean concentration | relative peak deviation | 195 ± 36%
O=C1CCc2ccc(OCCCCN3CCN(c4cccc(Cl)c4Cl)CC3)cc2N1 | item: Sedation | genotyped patients, CYP2D6 normal metabolizers | dose not given, long-acting oral or depot | – | adverse event incidence | 11%
C[C@@H](c1ncncc1F)[C@](O)(Cn1cncn1)c1ccc(F)cc1F | item: Photophobia | human | oral, 200 mg | – | drug-related TEAE incidence | 0%
CC(=O)O[C@H]1C(=O)[C@@]2(C)[C@H]([C@H](OC(=O)c3ccccc3)[C@]3(O)C[C@H](OC(=O)[C@H](O)[C@@H](NC(=O)c4ccccc4)c4ccccc4)C(C)=C1C3(C)C)[C@]1(OC(C)=O)CO[C@@H]1C[C@@H]2O | item: aspartate aminotransferase increased | patients with advanced solid tumours | intravenous, dose not given, grade 3 and 4, possibly related to drug | – | adverse event incidence | 6%
NC1(C(=O)N[C@@H](CCO)c2ccc(Cl)cc2)CCN(c2nc[nH]c3nccc2-3)CC1 | – | metastatic CRPC patients | 320 mg b.i.d., any grade, treatment-related, with: enzalutamide 160 mg daily | – | incidence of Somnolence | 0%
O=C(N[C@H](Cc1c[nH]c2ccccc12)C(=O)Nc1ccncc1)c1ccc(N2CCN(c3ccc(F)c(F)c3)CC2)cc1F | – | Swiss Webster mouse, female, muscle | oral, 50 mg/kg, 8 h, 20% HPβCD vehicle | – | concentration | 60 nM
Cc1cc(-c2nccc3c2ccn3CC(=O)Nc2ccc(-c3cnccn3)cn2)ccn1 | – | human | 5 mg once daily, multiple ascending dose | – | nervous system disorders | 0%

A few entries again:
SMILES | test | system | conditions | how to read | measurement | value
CO[C@H]1C[C@@H]2CC[C@@H](C)[C@@](O)(O2)C(=O)C(=O)N2CCCC[C@H]2C(=O)O[C@H]([C@H](C)C[C@@H]2CC[C@@H](OC(=O)NCCOCCOCCOCCOCCOCCOCCOCCOCCC(=O)N3CCc4cc(Cn5nc(-c6ccc7oc(N)nc7c6)c6c(N)ncnc65)ccc4C3)[C@H](OC)C2)C[C@@H](O)[C@H](C)/C=C(\C)[C@@H](O)[C@@H](OC)C(=O)[C@H](C)C[C@H](C)/C=C/C=C/C=C/1C | – | human patients, plasma | intravenous, 8 mg, cycle 1 day 15 | – | unbound Cmax | 18.9 nM
CNC(=O)c1ccc(-c2cnc3ncc(Cc4ccc5ncccc5c4)n3n2)cc1F | item: Fatigue, all grades | hepatocellular carcinoma patients | oral, 600 mg twice daily, expansion cohort, any causality | – | patients with adverse event | 27%
